Published values collected from several papers.
Each line is one published result; not all experiments were run side by side. Several values in a cell are separate wells, animals, samples, runs or records. ≈ marks a conversion by molar mass, not a printed value.

CC[C@@H](NC(=O)CNC(=O)[C@@H](CC(C)C)NC(=O)CNC(=O)[C@H](N)CCC(N)=O)C(=O)N[C@H](CC(=O)O)C(=O)N[C@H](CCC(=O)O)C(=O)N[C@H](CCSC)C(=O)N[C@H](CC(C)C)C(=O)N[C@H](CCC(N)=O)C(=O)NCC(=O)N[C@H](Cc1ccccc1)C(=O)N[C@H](C)C(=O)N[C@@H](C(=O)N[C@H](C)C(=O)N[C@@H](C(=O)N[C@H](CCCCN)C(=O)N[C@H](CCSC)C(=O)NCC(=O)N[C@H](C)C(=O)N[C@H](Cc1ccc(O)cc1)C(=O)N[C@H](CCCCN)C(=O)N[C@H](C)C(=O)N[C@H](CC(=O)O)C(=O)O)C(C)C)C(C)C gave an IC50 of 58 µM (hemagglutinin influenza A/California/07/2009 H1N1).
N#CC(C#N)=NNc1cccc(Cl)c1 has an MIC of 1 µg/mL (≈ 4.89 µM) (Neisseria gonorrhoeae; broth microdilution; ATCC 49226).
For CN1CC[C@]23c4c5ccc(O)c4O[C@H]2[C@@H](O)C=C[C@H]3[C@H]1C5, “time to peak effect” read 45 to 60 min (hot water tail withdrawal test; normal Sprague-Dawley rats; dose not given).
O=C(Cc1cccc(Cl)c1)N[C@H]1CCOC1=O has an activation of 49% (ExpR1 (Pectobacterium carotovorum); cellulase activity, agonist; Pectobacterium carotovorum, single-ExpR1 strain; 200 µM, 4 h; relative to: OHHL).
COc1ccc(-n2nc(C(C)=O)s/c2=N\N=C(/C)c2ccc(NC(C)=O)cc2)cc1 has a toxicity of 93.1% and 50.5% (MCF7; 1.25 µM).
The GI50 of COc1cc(CCC[P+](c2ccccc2)(c2ccccc2)c2ccccc2)c(OC)c2c1OCO2.[I-] is reported as -5.72 log M (SK-MEL-2; SRB).
For Cl.N=C(CC(O)c1cc2c(F)cc(F)cc2c2cc(C(F)(F)F)ccc12)Nc1ccc(Br)cc1 (centres unmarked), the cure rate was 0% (Plasmodium berghei; Peters 4-day test; ANKA, mouse; oral, 3 mg/kg).
Under “log2 fold change”, CC[C@H](C)[C@@H]1NC(=O)[C@@H]2CCCN2C(=O)[C@H](CC(C)C)NC(=O)[C@H](CC(C)C)NC(=O)CNC(=O)[C@@H](NC(=O)[C@@H](NC(=O)[C@H](CC(=O)O)NC(=O)CNC(=O)[C@@H](NC(=O)[C@H](C)NC(=O)CNC(=O)[C@H](CCCCN)NC(=O)[C@H](CC(C)C)NC(=O)[C@H](CC(C)C)NC(=O)[C@H](CCCCN)NC(=O)CNC(=O)[C@@H](NC(=O)[C@@H](N)CC(C)C)C(C)C)C(C)C)C(C)C)CSSC[C@@H](C(=O)O)NC1=O is recorded as -2.24 (RNA-seq, measured: Apobr mRNA; mouse traumatic brain injury, frontal cortex and hippocampus; dose not given; relative to: TBI plus compound vs TBI).
The IC50 of C#CC[C@@H](N)C(=O)N[C@H](CO)C(=O)N[C@@H](C(=O)N[C@H](CO)C(=O)N[C@H](CCC(=O)O)C(=O)N[C@@H](C(=O)N[C@H](CCC(N)=O)C(=O)N[C@H](CC(C)C)C(=O)N[C@H](CCSC)C(=O)N[C@H](Cc1c[nH]cn1)C(=O)N[C@H](CC(N)=O)C(=O)N[C@H](CC(C)C)C(=O)NCC(=O)N[C@H](CCCCN)C(=O)N[C@H](Cc1c[nH]cn1)C(=O)N[C@H](CC(C)C)C(=O)NCC(=O)N[C@H](CO)C(=O)N[C@H](CCSC)C(=O)N[C@H](C)C(=O)N[C@H](CCCNC(=N)N)C(=O)N[C@@H](C(=O)N[C@H](Cc1ccc(O)cc1)C(=O)N[C@H](Cc1ccccc1)C(=O)N[C@H](CC(C)C)C(=O)N[C@H](CCCNC(=N)N)C(=O)N[C@H](Cc1ccccc1)C(=O)N[C@H](CCCCN)C(=O)N[C@H](CC(C)C)C(=O)N[C@H](CCC(N)=O)C(=O)N[C@H](CC(C)C)C(=O)N[C@@H](C(N)=O)C(C)C)C(C)C)[C@H](C)CC)C(C)C is reported as 72 µM (hemagglutinin influenza A/California/07/2009 H1N1).
With CCCCC1(CCCC)CN(c2ccccc2)c2cc(SC)c(OCC(=O)N[C@@H](C(=O)NCC(=O)O)c3ccccc3)cc2S(=O)(=O)C1 the serum LDL-C was 97.5 mg/dL (measured: LDL cholesterol; human, serum; 2.5 mg once daily, day 11).
With CN1CCN(C2(CNC3CCN(c4cccc(-c5cc6cc(F)ccc6[nH]5)c4)CC3)CCC2)CC1 the CC50 was 4.8 µM (MDA-MB-435).
For C[C@H]1O[C@@H](O[C@H]2CC[C@@]3(C)[C@@H](CC[C@]4(C)[C@@H]3C=C[C@]35OC[C@@]6(CCC(C)(C)C[C@H]63)[C@@H](O)C[C@]54C)[C@]2(C)CO)[C@H](O)[C@@H](O[C@@H]2O[C@H](CO)[C@@H](O)[C@H](O)[C@H]2O)[C@H]1O, “liver to body weight ratio” read 4.6% and 3.78% and 4.49% and 4.95% and 4.28% and 4.37% (mouse, ethanol-fed, AAV8-TBG-Null; dose not given, high dose).
The CC50 of CC(C)N1CCC(NC2CCN(c3cccc(-c4cc5cc(F)ccc5[nH]4)c3)CC2)CC1 is reported as 6.55 µM (BT-549).
With CCCCCCCCCC(=O)CC(=O)N[C@H]1CCOC1=O the inhibition was 85% (ExpR1 (Pectobacterium carotovorum); cellulase activity, antagonist; Pectobacterium carotovorum, single-ExpR1 strain; 5 µM, 4 h, with: OHHL 5 µM).
For Cc1cn(-c2cc(NC(=O)c3ccc(C)c(Nc4nccc(-c5cccnc5)n4)c3)cc(C(F)(F)F)c2)cn1, “ADAS-Cog maze errors difference” read 0 (human patients; baseline, unit not given; relative to: placebo).
COc1c(CCC[P+](c2ccccc2)(c2ccccc2)c2ccccc2)cc2c(c1OC)OCO2.[I-] gave a GI50 of -6.25 log M (UACC-62; SRB).
Nc1ncnc2c1ncn2[C@@H]1O[C@@H]2COP(=O)(O)O[C@H]3[C@@H](O)[C@H](n4cnc5c(=O)[nH]cnc54)O[C@@H]3COP(=O)(O)O[C@H]2[C@H]1O has a fold enrichment of 16.4 (Zika virus; downregulated Reactome pathway, RNA sequencing, measured: Smooth Muscle Contraction (R-HSA-445355); HFF-1; relative to: ZIKV-infected untreated).
The MBC90 of CC[C@H](C)[C@H](NC(=O)[C@H](C)NC(=O)[C@H](CCCCN)NC(=O)[C@H](CC(C)C)NC(=O)[C@H](C)NC(=O)[C@@H](NC(=O)[C@H](Cc1c[nH]cn1)NC(=O)[C@H](CC(C)C)NC(=O)[C@@H](NC(=O)[C@@H](NC(=O)[C@H](CCCCN)NC(=O)[C@H](C)NC(=O)[C@H](C)NC(=O)[C@H](CO)NC(=O)[C@H](CCCCN)NC(=O)[C@H](Cc1ccccc1)NC(=O)[C@@H](NC(=O)[C@H](CCCCN)NC(=O)[C@H](CC(C)C)NC(=O)[C@H](Cc1ccccc1)NC(=O)[C@H](CO)NC(=O)[C@H](CCCCN)NC(=O)[C@H](Cc1c[nH]c2ccccc12)NC(=O)[C@H](CCCCN)NC(C)=O)[C@@H](C)O)[C@@H](C)O)C(C)C)[C@@H](C)O)C(=O)N[C@@H](CO)C(=O)N[C@@H](CO)C(N)=O is reported as 16 µg/mL (≈ 5.45 µM) (Klebsiella pneumoniae; ATCC 1706).
CS(=O)(=O)CCCn1c(Cn2c(=O)n(CC(F)(F)F)c3ccncc32)cc2cc(Cl)ccc21: “LS mean difference vs placebo” -1.55 log10 copies/mL (respiratory syncytial virus; RT-qPCR; hospitalized infants 1-24 months, nasal swab; oral, 2, 1.5 or 1 mg/kg daily, day 5, low dose by age cohort; relative to: placebo).
CO[C@H]1/C=C/O[C@@]2(C)Oc3c(C)c(O)c4c(O)c(c(/C=N/N5CCN(C)CC5)c(O)c4c3C2=O)NC(=O)/C(C)=C\C=C\[C@H](C)[C@H](O)[C@@H](C)[C@@H](O)[C@@H](C)[C@H](OC(C)=O)[C@@H]1C has an MIC90 of 0.01 µg/mL (≈ 0.0122 µM) (Mycobacterium bovis BCG; 1173 P2).

Repeated from above:
With CCCCCCCCCC(=O)CC(=O)N[C@H]1CCOC1=O the inhibition was 85% (ExpR1 (Pectobacterium carotovorum); cellulase activity, antagonist; Pectobacterium carotovorum, single-ExpR1 strain; 5 µM, 4 h, with: OHHL 5 µM).
